Assay results of several laboratories.
Every numbered part comes from another study and shows a few of its results, in no order.
Chain of UniProt P42336 (whole entry, unmodified, looked up): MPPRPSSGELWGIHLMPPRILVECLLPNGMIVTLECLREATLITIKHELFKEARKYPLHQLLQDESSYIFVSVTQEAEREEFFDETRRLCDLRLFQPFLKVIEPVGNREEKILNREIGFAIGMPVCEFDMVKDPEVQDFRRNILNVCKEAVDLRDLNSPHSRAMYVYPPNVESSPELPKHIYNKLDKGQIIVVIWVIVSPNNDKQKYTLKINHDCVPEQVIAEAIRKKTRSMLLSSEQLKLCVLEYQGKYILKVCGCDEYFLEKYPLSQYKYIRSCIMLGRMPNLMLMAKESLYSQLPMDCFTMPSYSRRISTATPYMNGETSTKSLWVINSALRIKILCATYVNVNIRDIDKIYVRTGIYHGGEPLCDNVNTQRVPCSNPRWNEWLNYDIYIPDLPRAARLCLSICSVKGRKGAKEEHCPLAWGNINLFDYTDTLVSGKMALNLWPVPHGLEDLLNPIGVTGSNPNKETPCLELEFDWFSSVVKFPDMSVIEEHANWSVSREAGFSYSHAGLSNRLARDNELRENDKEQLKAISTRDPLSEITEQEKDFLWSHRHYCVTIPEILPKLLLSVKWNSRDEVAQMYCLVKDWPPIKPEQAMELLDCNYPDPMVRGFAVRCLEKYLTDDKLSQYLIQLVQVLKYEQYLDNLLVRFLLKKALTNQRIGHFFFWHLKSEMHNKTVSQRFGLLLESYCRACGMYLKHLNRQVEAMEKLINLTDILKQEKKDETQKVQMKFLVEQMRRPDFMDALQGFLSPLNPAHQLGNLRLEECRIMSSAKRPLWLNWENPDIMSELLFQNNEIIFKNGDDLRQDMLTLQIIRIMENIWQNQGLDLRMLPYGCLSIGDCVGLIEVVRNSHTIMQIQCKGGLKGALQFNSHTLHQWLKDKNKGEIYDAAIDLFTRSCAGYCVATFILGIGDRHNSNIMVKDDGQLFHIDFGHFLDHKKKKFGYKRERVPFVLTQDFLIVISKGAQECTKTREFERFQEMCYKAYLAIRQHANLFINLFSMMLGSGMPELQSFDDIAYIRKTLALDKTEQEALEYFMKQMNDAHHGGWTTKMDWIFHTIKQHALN
Chain of UniProt P45985 (whole entry, looked up): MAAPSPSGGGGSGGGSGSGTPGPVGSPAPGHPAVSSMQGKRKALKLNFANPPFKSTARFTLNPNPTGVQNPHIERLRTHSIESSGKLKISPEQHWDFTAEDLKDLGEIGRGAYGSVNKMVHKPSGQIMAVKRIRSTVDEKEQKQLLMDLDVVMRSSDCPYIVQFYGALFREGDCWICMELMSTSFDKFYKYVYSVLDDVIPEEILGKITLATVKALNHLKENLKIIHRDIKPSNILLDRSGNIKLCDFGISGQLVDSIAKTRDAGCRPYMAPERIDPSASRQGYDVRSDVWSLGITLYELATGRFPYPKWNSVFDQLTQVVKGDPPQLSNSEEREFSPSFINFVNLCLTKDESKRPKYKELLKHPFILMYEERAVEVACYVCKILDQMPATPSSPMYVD
Chain of UniProt P15056 (whole entry, looked up): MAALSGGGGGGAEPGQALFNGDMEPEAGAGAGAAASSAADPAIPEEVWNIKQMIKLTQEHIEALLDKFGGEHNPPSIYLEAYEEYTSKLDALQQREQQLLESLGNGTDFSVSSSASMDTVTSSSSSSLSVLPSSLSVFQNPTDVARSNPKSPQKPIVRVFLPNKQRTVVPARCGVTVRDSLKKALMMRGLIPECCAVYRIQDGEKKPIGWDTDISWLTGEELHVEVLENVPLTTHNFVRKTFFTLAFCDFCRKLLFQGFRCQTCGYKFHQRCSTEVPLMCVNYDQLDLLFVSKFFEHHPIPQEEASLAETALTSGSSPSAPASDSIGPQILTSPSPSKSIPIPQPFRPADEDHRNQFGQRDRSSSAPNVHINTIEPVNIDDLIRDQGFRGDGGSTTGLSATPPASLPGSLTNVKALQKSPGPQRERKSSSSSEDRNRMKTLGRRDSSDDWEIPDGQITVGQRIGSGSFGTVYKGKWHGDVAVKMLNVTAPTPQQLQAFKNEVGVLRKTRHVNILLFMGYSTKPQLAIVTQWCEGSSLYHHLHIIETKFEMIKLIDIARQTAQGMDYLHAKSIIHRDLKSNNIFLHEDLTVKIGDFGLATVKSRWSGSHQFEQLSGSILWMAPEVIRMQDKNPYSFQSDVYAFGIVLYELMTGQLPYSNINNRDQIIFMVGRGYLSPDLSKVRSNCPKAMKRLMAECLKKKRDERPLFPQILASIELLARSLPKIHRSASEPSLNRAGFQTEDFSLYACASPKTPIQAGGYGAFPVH
Chain of UniProt P00519 (whole entry, unmodified, looked up): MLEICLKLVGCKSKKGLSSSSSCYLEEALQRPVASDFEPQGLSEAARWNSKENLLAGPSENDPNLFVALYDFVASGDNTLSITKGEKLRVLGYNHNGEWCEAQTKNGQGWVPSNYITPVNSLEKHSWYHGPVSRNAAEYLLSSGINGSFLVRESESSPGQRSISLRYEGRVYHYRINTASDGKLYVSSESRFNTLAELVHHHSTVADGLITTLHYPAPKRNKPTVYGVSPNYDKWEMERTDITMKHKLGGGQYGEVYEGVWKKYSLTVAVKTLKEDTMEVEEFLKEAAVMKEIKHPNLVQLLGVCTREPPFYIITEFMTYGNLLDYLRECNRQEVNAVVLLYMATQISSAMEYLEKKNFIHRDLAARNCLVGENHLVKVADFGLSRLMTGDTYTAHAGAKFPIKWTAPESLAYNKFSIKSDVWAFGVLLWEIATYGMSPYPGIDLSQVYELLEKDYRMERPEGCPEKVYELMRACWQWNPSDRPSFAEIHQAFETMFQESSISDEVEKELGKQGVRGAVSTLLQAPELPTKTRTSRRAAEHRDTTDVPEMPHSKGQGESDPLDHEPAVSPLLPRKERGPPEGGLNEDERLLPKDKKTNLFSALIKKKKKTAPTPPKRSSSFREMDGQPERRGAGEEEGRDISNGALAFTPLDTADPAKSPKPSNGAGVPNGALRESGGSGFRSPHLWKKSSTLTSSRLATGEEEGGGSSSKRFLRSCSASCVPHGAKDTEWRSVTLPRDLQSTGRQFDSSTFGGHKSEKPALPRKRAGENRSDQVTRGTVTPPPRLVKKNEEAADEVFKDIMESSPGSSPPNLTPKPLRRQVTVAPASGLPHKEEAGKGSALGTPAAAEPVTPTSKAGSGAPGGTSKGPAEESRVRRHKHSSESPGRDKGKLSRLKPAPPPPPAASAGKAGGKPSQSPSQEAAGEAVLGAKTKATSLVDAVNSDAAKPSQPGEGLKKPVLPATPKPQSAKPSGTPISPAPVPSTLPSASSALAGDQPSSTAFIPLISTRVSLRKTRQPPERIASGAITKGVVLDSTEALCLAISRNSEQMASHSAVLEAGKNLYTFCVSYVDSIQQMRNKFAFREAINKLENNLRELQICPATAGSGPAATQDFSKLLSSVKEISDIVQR
Chain of UniProt Q9NRM7 (whole entry, looked up): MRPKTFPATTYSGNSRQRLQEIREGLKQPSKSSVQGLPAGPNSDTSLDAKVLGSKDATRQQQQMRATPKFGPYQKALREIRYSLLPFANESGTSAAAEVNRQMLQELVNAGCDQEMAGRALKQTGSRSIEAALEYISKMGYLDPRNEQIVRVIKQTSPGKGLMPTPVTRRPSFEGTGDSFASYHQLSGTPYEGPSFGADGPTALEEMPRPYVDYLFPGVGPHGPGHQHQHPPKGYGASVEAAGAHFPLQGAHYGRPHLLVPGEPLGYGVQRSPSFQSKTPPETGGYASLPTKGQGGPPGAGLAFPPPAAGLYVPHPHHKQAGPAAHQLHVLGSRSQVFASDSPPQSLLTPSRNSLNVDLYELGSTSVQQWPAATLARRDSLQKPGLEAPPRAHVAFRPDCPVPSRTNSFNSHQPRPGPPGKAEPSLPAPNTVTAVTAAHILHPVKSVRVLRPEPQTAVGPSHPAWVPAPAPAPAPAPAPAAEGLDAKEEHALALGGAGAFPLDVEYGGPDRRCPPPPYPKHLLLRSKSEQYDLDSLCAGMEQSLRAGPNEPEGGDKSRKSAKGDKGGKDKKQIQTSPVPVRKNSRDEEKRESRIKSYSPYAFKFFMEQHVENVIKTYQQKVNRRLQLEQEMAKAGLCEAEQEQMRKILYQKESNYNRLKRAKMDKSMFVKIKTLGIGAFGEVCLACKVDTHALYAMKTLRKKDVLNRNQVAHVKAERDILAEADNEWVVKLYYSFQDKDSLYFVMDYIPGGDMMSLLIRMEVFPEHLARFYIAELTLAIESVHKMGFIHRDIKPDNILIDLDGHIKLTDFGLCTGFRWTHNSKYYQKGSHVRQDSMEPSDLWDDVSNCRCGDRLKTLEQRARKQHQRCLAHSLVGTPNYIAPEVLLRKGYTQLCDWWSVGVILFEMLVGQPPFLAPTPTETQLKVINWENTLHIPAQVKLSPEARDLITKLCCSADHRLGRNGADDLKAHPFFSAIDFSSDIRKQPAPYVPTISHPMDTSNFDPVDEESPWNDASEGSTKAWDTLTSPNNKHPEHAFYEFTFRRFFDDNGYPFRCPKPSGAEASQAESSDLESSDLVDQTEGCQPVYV

Set 1 — method: competition with immobilised ligand; concentration: 0.1 µM
Compound: CNC(=O)c1ccc(Nc2ncc(C(F)(F)F)c(NCc3nccnc3N(C)S(C)(=O)=O)n2)cc1
| target | read-out | remaining binding [%] |
| --- | --- | --- |
| STK3 (Homo sapiens, UniProt Q13188) | cell-free assay | 68 |
| FGFR4 (Homo sapiens, UniProt P22455) | cell-free assay | 95 |
| MAP2K4 (Homo sapiens, UniProt P45985) | cell-free assay | 71 |
| EPHA5 (Homo sapiens, UniProt P54756) | cell-free assay | 64 |
| NIM1K (Homo sapiens, UniProt Q8IY84) | cell-free assay | 100 |
| CSNK2A2 (Homo sapiens, UniProt P19784) | cell-free assay | 28 |
| BRAF (Homo sapiens, UniProt P15056) | cell-free assay | 100 |
| ACVRL1 (Homo sapiens, UniProt P37023) | cell-free assay | 100 |
| PIK3CA (Homo sapiens, UniProt P42336, I800L) | cell-free assay | 100 |
| FLT3 (Homo sapiens, UniProt P36888, ITD) | cell-free assay | 26 |
| TAOK3 (Homo sapiens, UniProt Q9H2K8) | cell-free assay | 26 |
| KIT (Homo sapiens, UniProt P10721) | cell-free assay | 84 |
| PIK3CA (Homo sapiens, UniProt P42336, H1047L) | cell-free assay | 32 |
| ACVR1 (Homo sapiens, UniProt Q04771) | cell-free assay | 100 |
| LATS2 (Homo sapiens, UniProt Q9NRM7) | cell-free assay | 65 |
| Tyrosine-protein kinase ABL1, non-phosphorylated (ABL1, Homo sapiens, UniProt P00519, F317I) | binding | 100 |

Set 2 — host: mouse; sample: microsomes or S9; concentration: 2 µM; time: 0.5 h
| Compound | remaining compound [%] |
| --- | --- |
| COC(=O)c1ccc(CCC(C)NCC(O)c2cccc(Cl)c2)o1 (stereo not drawn) | 3.98 |
| Cc1ccc(Nc2cc(C)n3c(=O)[nH]nc3n2)cc1F | 45 |
| CCOc1ccc(C(=O)N2CC(c3nnc(-c4ccncc4)o3)C3(CCOCC3)C2)cc1 (stereo not drawn) | 36.7 |
| Cc1cc(C(=O)NC2CCCC2)ccc1NC(=O)N1CCn2ncnc2C1 | 97.1 |
| COc1ccc(-c2oc3cc(OC)c(OC)c(OC)c3c(=O)c2OC)cc1OC | 12.6 |
| O=c1ccc2cnc(N[C@H]3CC[C@H](O)CC3)nc2n1C1CCCCC1 | 32.6 |
| Fc1ccc(-c2cc3c(cn2)sc2ccccc23)cc1 | 17.1 |
| CCOc1ccc(OCC)c(NC(=O)c2cc(S(=O)(=O)N3CCCCC3)c[nH]2)c1 | 1.97 |
| O=C(Nc1cc(Cl)ccc1Cl)c1c2c(nn1C1CCS(=O)(=O)C1)CCC2 (stereo not drawn) | 3.42 |
| Cc1cc(OCC(O)CN2C(C)(C)CC(O)CC2(C)C)ccc1C(C)C (stereo not drawn) | 2.87 |
| Cc1cc2n(n1)CC(CNC(C)COc1ccc(F)cc1F)CN2 (stereo not drawn) | 83.2 |

Set 3 — read-out: enzyme activity; action: inhibitor; concentration: 0.5 µM; relative to: control
Target: Serine/threonine-protein kinase 4 (STK4, Homo sapiens, UniProt Q13043)
Chain of UniProt Q13043 (whole entry, looked up): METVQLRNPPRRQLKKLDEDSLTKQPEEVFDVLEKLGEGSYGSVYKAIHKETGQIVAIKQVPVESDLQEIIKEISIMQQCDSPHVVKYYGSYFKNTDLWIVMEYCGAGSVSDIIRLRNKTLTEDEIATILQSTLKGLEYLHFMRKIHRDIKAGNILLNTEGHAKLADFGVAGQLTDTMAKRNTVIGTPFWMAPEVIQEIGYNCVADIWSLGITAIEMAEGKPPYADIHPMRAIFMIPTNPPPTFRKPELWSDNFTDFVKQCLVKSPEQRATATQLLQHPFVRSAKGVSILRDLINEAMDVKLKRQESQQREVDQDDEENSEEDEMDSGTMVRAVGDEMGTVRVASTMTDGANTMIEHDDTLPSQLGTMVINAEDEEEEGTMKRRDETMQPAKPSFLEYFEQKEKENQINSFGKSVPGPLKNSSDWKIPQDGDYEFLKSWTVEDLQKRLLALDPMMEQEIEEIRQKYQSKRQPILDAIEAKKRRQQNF
| Structure (SMILES) | remaining activity [%] |
| --- | --- |
| CCCNC(=O)Nc1ccc(Oc2ncnc3cc(OC)c(OC)cc23)cc1Cl | 92.8 |
| O=C1NC(=O)c2c1c1c3ccccc3[nH]c1c1[nH]c3cc(Br)ccc3c21 | 52 |
| CN1CCN(c2ccc3nc(-c4c(N)c5c(F)cccc5[nH]c4=O)[nH]c3c2)CC1 | 10 |
| N#Cc1cnc2cnc(NCc3cccnc3)cc2c1Nc1ccc(F)c(Cl)c1 | 100 |
| COc1ccc2c(c1)c(C1=C(c3c[nH]c4ccccc34)C(=O)NC1=O)cn2CCCN(C)C | 65.2 |
| CCCCc1c(-c2ccc(OC)cc2)[nH]c2nccnc12 | 82.2 |
| O=c1cc(N2CCOCC2)oc2c(-c3ccccc3)cccc12 | 87.8 |
| CN(C)S(=O)(=O)c1ccc2c(c1)/C(=C/c1cc3c([nH]1)CCCC3)C(=O)N2 | 13.1 |
| c1ccc(-c2n[nH]c3c2oc2ccccc23)cc1 | 99.8 |
| COc1cccc(-c2cc(=O)c3ccccc3o2)c1N | 92.1 |
| Cc1cc(Nc2cc(N3CCN(C)CC3)nc(Sc3ccc(NC(=O)C4CC4)cc3)n2)[nH]n1 | 48.9 |

Further values, each from its own experiment
| SMILES | host | dose | setting | endpoint | value |
| --- | --- | --- | --- | --- | --- |
| CC(C)n1cnc(-c2ccc(F)cc2)c1-c1ncc(C(=O)Nc2ccc(N3CCN(C)CC3)cc2)[nH]1 | human, idiopathic pulmonary fibrosis | 30 mg once daily | trial, treatment-emergent | patients with Pneumonia | 0% |

Repeated from above (set 2):
| Compound | remaining compound [%] |
| --- | --- |
| Cc1cc(C(=O)NC2CCCC2)ccc1NC(=O)N1CCn2ncnc2C1 | 97.1 |
| COc1ccc(-c2oc3cc(OC)c(OC)c(OC)c3c(=O)c2OC)cc1OC | 12.6 |
| O=c1ccc2cnc(N[C@H]3CC[C@H](O)CC3)nc2n1C1CCCCC1 | 32.6 |
